Measured values pooled from the literature.
Lines come from different studies, so protocols differ. Numbers after ± are the reported error.
Melanocortin receptor 5: Melanocortin receptor 5 (Mus musculus, UniProt P41149)
Sequence of UniProt P41149 (whole entry, looked up): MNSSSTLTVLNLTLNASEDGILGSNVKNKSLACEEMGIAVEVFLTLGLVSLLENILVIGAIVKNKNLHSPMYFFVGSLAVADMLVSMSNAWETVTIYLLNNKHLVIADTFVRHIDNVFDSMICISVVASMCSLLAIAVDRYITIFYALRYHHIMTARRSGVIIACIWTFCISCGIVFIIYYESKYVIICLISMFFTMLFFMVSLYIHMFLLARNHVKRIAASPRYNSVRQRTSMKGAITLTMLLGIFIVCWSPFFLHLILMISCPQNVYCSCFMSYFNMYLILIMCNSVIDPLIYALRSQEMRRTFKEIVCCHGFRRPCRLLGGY
CD209: CD209 antigen (CD209, Homo sapiens, UniProt Q9NNX6)
Sequence of UniProt Q9NNX6 (whole entry, looked up): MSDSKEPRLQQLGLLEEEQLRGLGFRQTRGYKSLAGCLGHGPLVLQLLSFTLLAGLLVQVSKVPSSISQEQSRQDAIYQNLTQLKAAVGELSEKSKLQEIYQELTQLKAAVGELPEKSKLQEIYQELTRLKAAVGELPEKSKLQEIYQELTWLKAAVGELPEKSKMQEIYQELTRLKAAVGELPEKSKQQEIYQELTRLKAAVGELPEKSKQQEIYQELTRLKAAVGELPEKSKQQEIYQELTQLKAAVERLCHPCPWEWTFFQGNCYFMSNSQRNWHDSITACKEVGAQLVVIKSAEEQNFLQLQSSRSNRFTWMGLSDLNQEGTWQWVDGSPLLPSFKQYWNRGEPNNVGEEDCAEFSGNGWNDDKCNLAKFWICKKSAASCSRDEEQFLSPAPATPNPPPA
CFTR del508-508: Cystic fibrosis transmembrane conductance regulator (CFTR, Homo sapiens, UniProt P13569, del508-508)
B1: R-spondin 1 (human, recombinant); chain SRGIKGKRQRRISAEGSQACAKGCELCSEVNGCLKCSPKLFILLERNDIRQVGVCLPSCPPGYFDARNPDMNKCIKCKIEHCEACFSHNFCTKCKEGLYLHKGRCYPACPEGSSAANGTMECSSPAQCEMSEWSPWGPCSKKQQLCGFRRGSEERTRRVLHAPVGDHAACSDTKETRRCTVRRVPCPEGQKRRKGGQGRRENANRNLARKESKEAGAGSRRRKGQQQQQQQGTVGPLTSAGPA
Sequence of UniProt Q9Y5Z9 (whole entry, unmodified, looked up): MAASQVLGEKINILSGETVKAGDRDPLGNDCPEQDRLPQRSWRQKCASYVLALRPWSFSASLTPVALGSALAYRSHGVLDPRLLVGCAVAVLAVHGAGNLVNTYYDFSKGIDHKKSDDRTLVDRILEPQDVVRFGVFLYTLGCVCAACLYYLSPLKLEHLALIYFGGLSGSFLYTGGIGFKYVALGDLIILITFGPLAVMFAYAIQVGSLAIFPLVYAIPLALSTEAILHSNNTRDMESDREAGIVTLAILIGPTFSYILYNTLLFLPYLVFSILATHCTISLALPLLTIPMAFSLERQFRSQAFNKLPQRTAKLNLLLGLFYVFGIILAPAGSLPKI
Sequence of UniProt Q9HBX9 (whole entry, looked up): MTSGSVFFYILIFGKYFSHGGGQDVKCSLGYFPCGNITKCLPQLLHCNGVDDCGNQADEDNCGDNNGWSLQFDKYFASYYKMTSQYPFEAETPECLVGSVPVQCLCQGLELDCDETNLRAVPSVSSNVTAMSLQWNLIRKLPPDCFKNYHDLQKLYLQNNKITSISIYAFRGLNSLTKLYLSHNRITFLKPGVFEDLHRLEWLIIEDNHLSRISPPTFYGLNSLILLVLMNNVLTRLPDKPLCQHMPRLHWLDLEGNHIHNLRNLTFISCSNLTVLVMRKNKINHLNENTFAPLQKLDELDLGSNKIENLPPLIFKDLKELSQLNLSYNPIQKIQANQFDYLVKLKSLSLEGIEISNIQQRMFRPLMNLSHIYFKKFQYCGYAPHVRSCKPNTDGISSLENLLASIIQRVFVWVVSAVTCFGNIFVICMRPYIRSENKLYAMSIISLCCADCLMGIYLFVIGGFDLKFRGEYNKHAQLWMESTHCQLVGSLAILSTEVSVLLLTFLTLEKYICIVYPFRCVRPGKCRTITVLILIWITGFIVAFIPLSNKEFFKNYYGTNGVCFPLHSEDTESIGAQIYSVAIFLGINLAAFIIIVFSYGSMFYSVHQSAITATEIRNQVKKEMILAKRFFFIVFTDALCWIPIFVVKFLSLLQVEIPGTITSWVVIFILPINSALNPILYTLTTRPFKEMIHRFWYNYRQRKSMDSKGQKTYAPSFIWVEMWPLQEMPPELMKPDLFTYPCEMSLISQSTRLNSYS
Sequence of UniProt P56726 (whole entry, unmodified, looked up): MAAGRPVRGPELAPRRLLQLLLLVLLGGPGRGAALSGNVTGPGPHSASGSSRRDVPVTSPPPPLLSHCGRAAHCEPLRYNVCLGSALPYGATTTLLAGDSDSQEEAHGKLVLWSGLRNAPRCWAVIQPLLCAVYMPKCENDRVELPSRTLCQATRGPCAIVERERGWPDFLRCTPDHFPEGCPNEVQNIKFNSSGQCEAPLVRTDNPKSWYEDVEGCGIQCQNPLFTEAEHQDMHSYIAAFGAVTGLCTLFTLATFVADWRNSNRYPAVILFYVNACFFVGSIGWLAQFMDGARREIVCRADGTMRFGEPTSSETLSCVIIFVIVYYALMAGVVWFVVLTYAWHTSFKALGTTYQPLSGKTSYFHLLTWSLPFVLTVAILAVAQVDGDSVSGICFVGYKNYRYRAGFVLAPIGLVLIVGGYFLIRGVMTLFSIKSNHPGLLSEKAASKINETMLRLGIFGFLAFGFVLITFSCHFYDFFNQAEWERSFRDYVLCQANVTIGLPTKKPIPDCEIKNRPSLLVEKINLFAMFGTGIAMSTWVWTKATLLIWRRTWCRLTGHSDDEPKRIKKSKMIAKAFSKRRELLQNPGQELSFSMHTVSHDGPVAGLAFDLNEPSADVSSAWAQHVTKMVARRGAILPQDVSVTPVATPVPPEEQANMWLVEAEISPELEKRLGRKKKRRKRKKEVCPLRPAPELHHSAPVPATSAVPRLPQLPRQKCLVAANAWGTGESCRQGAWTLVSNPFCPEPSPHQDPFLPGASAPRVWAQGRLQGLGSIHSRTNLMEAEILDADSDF
Sequence of UniProt Q9UHM6 (whole entry, looked up): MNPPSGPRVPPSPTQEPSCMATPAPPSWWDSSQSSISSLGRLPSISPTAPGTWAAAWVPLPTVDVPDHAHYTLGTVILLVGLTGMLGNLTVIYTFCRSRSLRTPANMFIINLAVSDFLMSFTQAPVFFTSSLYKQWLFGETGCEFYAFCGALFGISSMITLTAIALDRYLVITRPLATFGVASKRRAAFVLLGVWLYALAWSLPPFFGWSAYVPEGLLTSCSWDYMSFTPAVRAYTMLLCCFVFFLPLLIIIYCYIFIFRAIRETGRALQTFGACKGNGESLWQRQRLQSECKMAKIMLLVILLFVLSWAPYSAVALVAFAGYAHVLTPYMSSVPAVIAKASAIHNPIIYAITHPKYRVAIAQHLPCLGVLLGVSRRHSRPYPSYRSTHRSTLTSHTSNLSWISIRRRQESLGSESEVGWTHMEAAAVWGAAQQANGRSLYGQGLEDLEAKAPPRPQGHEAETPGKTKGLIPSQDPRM
Sequence of UniProt Q68D91 (whole entry, looked up): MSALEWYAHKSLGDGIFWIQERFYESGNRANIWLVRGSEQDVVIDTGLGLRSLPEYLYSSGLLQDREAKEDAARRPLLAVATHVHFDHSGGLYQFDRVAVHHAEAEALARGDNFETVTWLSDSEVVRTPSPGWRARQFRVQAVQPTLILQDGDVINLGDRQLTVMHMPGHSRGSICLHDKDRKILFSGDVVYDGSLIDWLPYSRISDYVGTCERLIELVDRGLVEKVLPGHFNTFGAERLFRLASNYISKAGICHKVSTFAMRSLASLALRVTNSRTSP
Sequence of UniProt P62508 (whole entry, looked up): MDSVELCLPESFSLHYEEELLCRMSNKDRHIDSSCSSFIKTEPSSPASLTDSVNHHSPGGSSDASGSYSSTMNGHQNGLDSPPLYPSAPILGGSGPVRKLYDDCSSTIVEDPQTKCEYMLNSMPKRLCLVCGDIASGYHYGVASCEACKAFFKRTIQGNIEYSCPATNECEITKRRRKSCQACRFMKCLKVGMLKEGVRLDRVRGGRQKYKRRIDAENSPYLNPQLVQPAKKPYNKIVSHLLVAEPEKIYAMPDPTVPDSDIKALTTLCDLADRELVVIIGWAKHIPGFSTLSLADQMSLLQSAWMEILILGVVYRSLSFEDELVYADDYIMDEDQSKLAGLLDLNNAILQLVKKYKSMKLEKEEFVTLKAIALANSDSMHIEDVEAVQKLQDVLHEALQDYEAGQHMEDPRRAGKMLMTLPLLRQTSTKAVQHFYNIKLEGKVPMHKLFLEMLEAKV
Sequence of UniProt P41145 (whole entry, looked up): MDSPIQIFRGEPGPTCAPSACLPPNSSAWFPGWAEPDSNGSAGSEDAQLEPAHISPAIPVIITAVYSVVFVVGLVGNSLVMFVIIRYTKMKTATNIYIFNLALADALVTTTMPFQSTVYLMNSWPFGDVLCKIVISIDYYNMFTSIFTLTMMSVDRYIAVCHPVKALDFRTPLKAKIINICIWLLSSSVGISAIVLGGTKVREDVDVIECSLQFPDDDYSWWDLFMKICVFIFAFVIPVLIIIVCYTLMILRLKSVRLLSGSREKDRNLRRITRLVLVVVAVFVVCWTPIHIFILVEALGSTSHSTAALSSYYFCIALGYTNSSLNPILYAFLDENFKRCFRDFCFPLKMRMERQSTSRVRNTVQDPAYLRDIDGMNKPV
Sequence of UniProt Q8WXD0 (whole entry, looked up): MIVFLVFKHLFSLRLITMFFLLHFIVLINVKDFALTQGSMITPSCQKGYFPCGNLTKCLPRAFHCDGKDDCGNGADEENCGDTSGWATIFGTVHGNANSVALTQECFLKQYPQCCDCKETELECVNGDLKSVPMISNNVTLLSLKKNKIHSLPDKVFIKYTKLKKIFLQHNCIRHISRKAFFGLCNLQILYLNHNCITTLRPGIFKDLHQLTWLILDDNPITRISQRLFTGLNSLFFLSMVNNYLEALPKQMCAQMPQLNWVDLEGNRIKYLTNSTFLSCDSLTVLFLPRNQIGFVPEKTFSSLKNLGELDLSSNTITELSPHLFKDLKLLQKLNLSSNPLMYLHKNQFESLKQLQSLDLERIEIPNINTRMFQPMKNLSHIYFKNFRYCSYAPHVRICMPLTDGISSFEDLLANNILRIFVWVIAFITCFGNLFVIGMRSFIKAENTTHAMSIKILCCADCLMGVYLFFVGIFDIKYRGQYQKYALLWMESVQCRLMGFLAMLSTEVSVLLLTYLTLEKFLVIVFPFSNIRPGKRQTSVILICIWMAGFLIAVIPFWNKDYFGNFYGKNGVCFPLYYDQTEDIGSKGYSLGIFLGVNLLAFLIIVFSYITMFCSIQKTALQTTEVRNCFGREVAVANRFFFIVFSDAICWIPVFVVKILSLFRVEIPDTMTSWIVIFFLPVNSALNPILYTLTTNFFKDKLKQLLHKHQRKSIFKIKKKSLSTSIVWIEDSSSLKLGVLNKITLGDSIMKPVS

CCCC[C@H](NC(=O)[C@H](CO)NC(=O)[C@H](Cc1ccc(O)cc1)NC(=O)[C@H](CO)NC(C)=O)C(=O)N[C@@H](CCC(=O)O)C(=O)N[C@@H](Cc1c[nH]cn1)C(=O)N[C@H](Cc1ccccc1)C(=O)N[C@@H](CCCNC(=N)N)C(=O)N[C@@H](Cc1c[nH]c2ccccc12)C(=O)NCC(=O)N[C@@H](C)C(=O)N1CCC[C@H]1C(=O)N[C@H](C(N)=O)C(C)C — EC50 (Melanocortin receptor 5): 0.094 ± 0.005 nM
CCCCCOC(C)=O — EC50 (Olfr124 (Mus musculus, UniProt Q0VEF0); transduction current, agonist, perforated patch clamp; septal organ olfactory neurons, mouse; pH 7.4, 25 °C): 1200 ± 800 nM
O=C(COc1ccc(Cl)cc1)N[C@H]1CC[C@H](NC(=O)COc2ccc(Cl)cc2)CC1 — EC50 (Translation initiation factor eIF2B (Cricetulus griseus, UniProt A0A8C2M9U0+A0A8C2MKR7); guanine nucleotide exchange, activator, Bodipy-FL-GDP release; Cricetulus griseus cell lysate; with: phosphorylated eIF2 substrate): 27 nM
COc1c(Nc2cc(C(F)(F)F)cc(C(F)(F)F)c2)c(=O)c1=O — EC50 (CD209; binding, grating-coupled interferometry; mannose-PEG3 chip; overnight, Tris quench): 100000 nM
CSCC[C@H](NC(=O)[C@H](CO)NC(=O)[C@H](Cc1ccc(O)cc1)NC(=O)[C@H](CO)NC(C)=O)C(=O)N[C@@H](CCC(=O)O)C(=O)N[C@@H](Cc1c[nH]cn1)C(=O)N[C@@H](Cc1ccccc1)C(=O)N[C@@H](CCCNC(=N)N)C(=O)N[C@@H](Cc1c[nH]c2ccccc12)C(=O)NCC(=O)N[C@@H](C)C(=O)N1CCC[C@H]1C(=O)N[C@H](C(N)=O)C(C)C — EC50 (Melanocortin receptor 5): 7.1 ± 3.13 nM
O=C(CN1CCCC1C(=O)Nc1nccs1)Nc1cccc(F)c1 (centres unmarked) — EC50 (Kappa-type opioid receptor (OPRK1, Homo sapiens, UniProt P41145); G protein activation, agonist, BRET): 7200 nM
CCCC[C@H](NC(=O)[C@H](CO)NC(=O)[C@H](Cc1ccc(O)cc1)NC(=O)[C@H](CO)NC(C)=O)C(=O)N[C@@H](C)C(=O)N[C@@H](Cc1c[nH]cn1)C(=O)N[C@H](Cc1ccccc1)C(=O)N[C@@H](CCCNC(=N)N)C(=O)N[C@@H](Cc1c[nH]c2ccccc12)C(=O)NCC(=O)N[C@@H](CCCCN)C(=O)N1CCC[C@H]1C(=O)N[C@H](C(N)=O)C(C)C — EC50 (Melanocortin receptor 5): 0.25 ± 0.012 nM
heparin sodium — EC50 (Small ribosomal subunit protein uS2, residues 2-220 (Rpsa, Mus musculus, UniProt P14206); laminin binding, enhancer, indirect ELISA): 35 ± 4 nM
CCCC[C@H](NC(=O)[C@H](CO)NC(=O)[C@H](Cc1ccc(O)cc1)NC(=O)[C@H](CO)NC(C)=O)C(=O)N[C@@H](CCC(=O)O)C(=O)N[C@@H](Cc1c[nH]cn1)C(=O)N[C@H](Cc1ccccc1)C(=O)N[C@@H](CCCNC(=N)N)C(=O)N[C@@H](Cc1c[nH]c2ccccc12)C(=O)N[C@@H](C)C(=O)N[C@@H](CCCCN)C(=O)N1CCC[C@H]1C(=O)N[C@H](C(N)=O)C(C)C — EC50 (Melanocortin receptor 5): 0.11 ± 0.02 nM
Cn1c(=O)c(-c2cc([N+](=O)[O-])ccc2N)nc2ccccc21 — EC50 (Cystic fibrosis transmembrane conductance regulator (CFTR, Homo sapiens, UniProt P13569); channel activation, activator, YFP halide sensor; FRT cells; approximate, with: 125 nM forskolin): ~10000 nM
CC1=CC(=O)c2ccccc2C1=O — EC50 (UbiA prenyltransferase domain-containing protein 1 (UBIAD1, Homo sapiens, UniProt Q9Y5Z9, G186R); vitamin K-dependent carboxylation, substrate; cell-based, with: FIXgla-PC reporter): 221 nM
C=CCn1nc(-c2sc(NC(=O)C(C)(C)C)nc2C)cc1C(=O)NCc1ccccc1 — EC50 (CFTR del508-508; iodide influx, corrector, YFP quenching; FRT expressing ΔF508-CFTR and YFP-H148Q/I152L; with: forskolin 20 µM + genistein 50 µM): 3000 nM
CCCC[C@H](NC(=O)[C@H](CO)NC(=O)[C@H](C)NC(=O)[C@H](CO)NC(C)=O)C(=O)N[C@@H](CCC(=O)O)C(=O)N[C@@H](Cc1c[nH]cn1)C(=O)N[C@H](Cc1ccccc1)C(=O)N[C@@H](CCCNC(=N)N)C(=O)N[C@@H](Cc1c[nH]c2ccccc12)C(=O)NCC(=O)N[C@@H](CCCCN)C(=O)N1CCC[C@H]1C(=O)N[C@H](C(N)=O)C(C)C — EC50 (Melanocortin receptor 5): 0.085 ± 0.003 nM
CSCC[C@H](NC(=O)[C@H](CCC(=O)O)NC(=O)[C@@H]1CCCN1C(=O)[C@@H](NC(=O)[C@@H]1CCCN1)[C@@H](C)O)C(=O)N[C@@H](CCCNC(=N)N)C(=O)N[C@@H](CCC(=O)O)C(=O)N[C@@H](CCCCN)C(=O)N[C@@H](CC(C)C)C(=O)N[C@H]1CSSC[C@@H]2NC(=O)[C@@H](NC(=O)[C@H](Cc3ccc(O)cc3)NC(=O)[C@H](CCCNC(=N)N)NC(=O)[C@H](C)NC(=O)[C@@H]3CCCN3C(=O)[C@H](CC(N)=O)NC(=O)[C@@H](NC(=O)[C@H](C)NC(=O)[C@H](C)NC(=O)[C@H](C)N)[C@@H](C)O)CSSC[C@H](NC(=O)CNC(=O)[C@H](CO)NC(=O)[C@H](CC(C)C)NC2=O)C(=O)N[C@@H]([C@@H](C)O)C(=O)N[C@@H](CCC(N)=O)C(=O)N[C@@H](CCC(N)=O)C(=O)N[C@@H](CC(=O)O)C(=O)N[C@@H](CC(C)C)C(=O)N[C@@H](CC(C)C)C(=O)N[C@@H]([C@@H](C)O)C(=O)N[C@@H](CC(C)C)C(=O)N[C@H](C(=O)N2CCC[C@H]2C(=O)N[C@@H](Cc2ccc(O)cc2)C(=O)O)CSSC[C@@H](C(=O)NCC(=O)NCC(=O)N2CCC[C@H]2C(=O)N[C@@H](CCCNC(=N)N)C(=O)N[C@@H](Cc2c[nH]c3ccccc23)C(=O)N[C@@H](CO)C(=O)N[C@H](C(=O)N[C@@H](CCC(=O)O)C(=O)N[C@@H](C)C(=O)O)[C@@H](C)O)NC(=O)[C@H](C(C)C)NC(=O)[C@H](CCCNC(=N)N)NC(=O)[C@H](C(C)C)NC(=O)[C@H](CC(C)C)NC(=O)[C@H](C)NC(=O)[C@H](CCCNC(=N)N)NC(=O)[C@H](C(C)C)NC(=O)[C@H](Cc2ccccc2)NC(=O)[C@H](Cc2c[nH]cn2)NC(=O)[C@H](Cc2c[nH]cn2)NC(=O)CNC1=O — EC50 (Relaxin receptor 2 (RXFP2, Homo sapiens, UniProt Q8WXD0); cAMP production, agonist, CAMYEL BRET; HEK293 transfected; 5 min, 37 °C): 2.24 nM
CCCCc1nc2cc(/C=C/C(=O)NO)ccc2n1CCN(CC)CC — EC50 (MBLAC2 (Homo sapiens, UniProt Q68D91); palmitoyl-CoA hydrolysis, inhibitor; with: [3H]palmitoyl-CoA): < 6.31 nM
CCCC[C@H](NC(=O)[C@H](CO)NC(=O)[C@H](Cc1ccc(O)cc1)NC(=O)[C@H](CO)NC(C)=O)C(=O)N[C@@H](CCC(=O)O)C(=O)N[C@@H](Cc1c[nH]cn1)C(=O)N[C@H](Cc1ccccc1)C(=O)N[C@@H](CCCNC(=N)N)C(=O)N[C@@H](C)C(=O)NCC(=O)N[C@@H](CCCCN)C(=O)N1CCC[C@H]1C(=O)N[C@H](C(N)=O)C(C)C — EC50 (Melanocortin receptor 5): 31 ± 3.34 nM
B1 (R-spondin 1) — EC50 (human LGR5; binding, ELISA; 2 h): ~0.04 nM
FC(F)(F)c1cc(Nc2nc(Cl)nc(Cl)n2)cc(C(F)(F)F)c1 — EC50 (CD209; binding, grating-coupled interferometry; mannose-PEG3 chip; overnight, Tris quench): 100000 nM
Cc1ccccc1C(=O)NN=Cc1ccccc1 — EC50 (Estrogen-related receptor gamma (ESRRG, Homo sapiens, UniProt P62508); reporter gene, agonist, luciferase reporter; HEK293 transfected): 1600 nM
O=C(Nc1ccccc1C(=O)Nc1ccccc1C(=O)NCc1ccco1)c1ccco1 — EC50 (Relaxin receptor 1 (RXFP1, Homo sapiens, UniProt Q9HBX9); cAMP, agonist, TR-FRET): 3800 nM
COc1ccc(Cl)cc1Cn1nc(-c2sc(NC(=O)C(C)(C)C)nc2C)cc1C(=O)N1CCOCC1 — EC50 (CFTR del508-508; iodide influx, corrector, YFP quenching; FRT expressing ΔF508-CFTR and YFP-H148Q/I152L; with: forskolin 20 µM + genistein 50 µM): 1000 nM
CC1=C(/C=C/C(C)=C\C=C\C(C)=C\C=O)C(C)(C)CCC1 — EC50 (Melanopsin (OPN4, Homo sapiens, UniProt Q9UHM6); light-induced calcium release, FLIPR Fluo-4; CHO cells expressing Opn4; light-exposed cells, added immediately before light): 20 ± 9 nM
CCCCC[C@@](C)(O)[C@H]1CC[C@H]2[C@@H]3CC=C4C[C@@H](O)CC[C@]4(C)[C@H]3CC[C@@]21C — EC50 (Protein smoothened (Smo, Mus musculus, UniProt P56726, G115S); Hh pathway activation, agonist, item: Gli1 mRNA; Smo-null cells rescued with Smo): 1300 nM

For quick reference, copied from above:
B1 (R-spondin 1) — EC50 (human LGR5; binding, ELISA; 2 h): ~0.04 nM
C=CCn1nc(-c2sc(NC(=O)C(C)(C)C)nc2C)cc1C(=O)NCc1ccccc1 — EC50 (CFTR del508-508; iodide influx, corrector, YFP quenching; FRT expressing ΔF508-CFTR and YFP-H148Q/I152L; with: forskolin 20 µM + genistein 50 µM): 3000 nM
